# Assay results collected from several papers.
# Parts stem from different laboratories: compare values within a part only.

# Block 1
# Target: RING finger protein unkempt homolog, zinc fingers 1-6, SBP tag (UNK, Homo sapiens, UniProt Q9C0B0, residues 30-357)
# Sequence of UniProt Q9C0B0 (30-357, looked up): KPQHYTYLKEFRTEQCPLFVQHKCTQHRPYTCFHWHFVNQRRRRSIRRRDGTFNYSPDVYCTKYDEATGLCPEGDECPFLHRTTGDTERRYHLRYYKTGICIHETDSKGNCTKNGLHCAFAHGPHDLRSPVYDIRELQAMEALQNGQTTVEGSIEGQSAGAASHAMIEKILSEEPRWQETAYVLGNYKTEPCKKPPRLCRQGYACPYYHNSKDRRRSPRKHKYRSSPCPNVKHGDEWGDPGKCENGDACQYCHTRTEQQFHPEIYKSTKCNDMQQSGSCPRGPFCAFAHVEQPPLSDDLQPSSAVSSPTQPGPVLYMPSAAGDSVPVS
# Method: RNA Bind-n-Seq
# Molecule type: RNA
# Medium: in vitro
# Tested at: 100 nM
# Setting: RNA with constant flanks, vertebrate orthologous sites, ends assumed
# Reference: input RNA pool
# Reading: higher = stronger binding
Strand,bound/input enrichment [ratio]
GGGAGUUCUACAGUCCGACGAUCGCACUACCUAUACCAAUUUUACAACAUUGAAUGCAAAAUAGUGAAUUUCAUAGUCACAGAGGAAGAUAGCUUUAGGGCACUGUCCCCAUGGGUUUUACUUGUGUAGGUUUUGAAAAUGUACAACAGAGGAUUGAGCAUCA,0.88
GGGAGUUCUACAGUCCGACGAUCGACCUCCUGAACUUCUAGCUUUCCAGUUGGGGCUGUUUUAGAUACUGAUUUUCUUUUCCUUAGAGUUUUUCCCUGUUUCCUGCCUUUCUUCCCCUGUUCCCAAGGUUUGACUUCCGGAUUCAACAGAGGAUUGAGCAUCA,2.32
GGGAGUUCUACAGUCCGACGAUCACUAAUUCCAGAGUAGUAUAUGUUUCAUAAAGAGAAGUCUUUAUAAUUUUGUUUGUCAUAUAGUAUUUUGGAAUUUGUAUAAUGAGGAUGUUUAGUAGCCAUAUCUCAAUGGCUUUUUUACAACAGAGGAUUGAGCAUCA,0.579
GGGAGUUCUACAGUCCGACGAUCGGUGUUUUCAAACAAUAGGAAGCUUUUAUUGUUUUACAGUUUAGUGUAUGGUUUCUAUGUGGAAGACUAAACUCAUGCUUAUAGCUAAAGGGGUGUUUGCCAACUAAAUUUAAGAUGCAGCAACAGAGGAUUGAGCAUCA,0.642
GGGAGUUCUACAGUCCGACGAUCACGCUUUGAUAUUAAAUUCUACAUAAAAAGCAGCUGAUCGUAAGCACAACUCUCUCCUCCUAGCCAUUUAAAAAGGUAAAAAACAAAAAAGAAAACCUACUAGUCUUGAACAAACUGUCACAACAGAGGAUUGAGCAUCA,0.84

# Block 2
# Target: RNA binding protein fox-1 homolog 2, RRM domain, GST-SBP tag (RBFOX2, Homo sapiens, UniProt O43251-10, residues 100-194)
# Method: RNA Bind-n-Seq
# Molecule type: RNA
# Medium: in vitro
# Tested at: 365 nM
# Setting: natural RNA segment, single round, ends assumed
# Reference: no-protein control
# Reading: higher = stronger binding
# Target sequence (chain): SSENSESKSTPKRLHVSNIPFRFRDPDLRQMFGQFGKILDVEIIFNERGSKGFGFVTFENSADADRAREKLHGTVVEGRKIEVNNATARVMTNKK
Strand,RBNS enrichment (R)
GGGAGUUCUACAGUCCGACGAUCAGCAUCAGGUGUAGGAGGCCUUGAGUCUGUGAGACCCCCGGGGCCAGCACCAAGACUCACGGAAAGACUAGACUGUGUGGGUAUCUGAAACAAAGCCCACAGGAUACGCCUGGAAUUCUCGGGUGCCAA,0.644
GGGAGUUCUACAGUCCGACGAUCUCUGCUUUUCUUGGCGUUGGGUAGAAGCAGGACAUCUGUGUGUAUGUGCGUAUUUAAAUUAGAUUAUUUAUAAUAACCAGAGCCAGCCCUCGCGCUGGCCAGGAUCCUCCUGGAAUUCUCGGGUGCCAA,0.526
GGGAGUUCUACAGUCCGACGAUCUUCCCUUUGGCUCCUGGAAGGCAGGAGGGUCCCCUGCCCUGCCCCAGUCCUGCCCCAGGGAGGCAGGGGGUGGGGGGCCUUCCUUUCCUCCUGGGCACCCCGUGUGCUGUUGGAAUUCUCGGGUGCCAA,0.502
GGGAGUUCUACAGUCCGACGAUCUUAGAUGUUUGUCUUGCACAACAUUGGCAUGAUUUUUCCGGGAGUUUCAUCAGAUCUGAUUUCUGAGAGUCUGGGGAUCUGCCAUGGUGGAAAGUGCCCCUCAAAAGCAUUGGAAUUCUCGGGUGCCAA,0.489
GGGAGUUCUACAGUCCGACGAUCGGUGGCUGUCUUGGAACUGGGAGACAGGUCCUCAGAGGUGCACUCAGGCAACAGGACAGCCAUCUCUCUGCUUCAGCCCUCUGCCUACAGGGAUUAGGGAAAUGGAGCUCUGGAAUUCUCGGGUGCCAA,0.286
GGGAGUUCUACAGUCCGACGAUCUUUAUACAUCAGCUCCUUACUGCUUAUUAAUCUGUAUUGUACCCACGAUAUCAGGAGUGAAGCAGACGCUGGCCUUUCCAUGAAUAGCCACCACAUGGCCCAGCAUCUCUUGGAAUUCUCGGGUGCCAA,0.519
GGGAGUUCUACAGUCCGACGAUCGGGGUGCCCCACACAGCUAGAGCGGCCAGGAGAGCGCCUCCUAACCACCAGCCGUUCCUGAUCUCAGGAGCCUUGAAGGGCUGGGCUCUUGCCUUCCUGGAGUAAAUAUUUGGAAUUCUCGGGUGCCAA,0.346
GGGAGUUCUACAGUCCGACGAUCUAAAAUCCCUGUGGCCAGUUUGAACACCCCUGUUGUAUUCUUUUCUCUGUUCAGUGUGUCAGCUAUUUUGUGAAGAUGCUUAGAUGUAUAGUUUUGAUAACCACAGUUUUUGGAAUUCUCGGGUGCCAA,0.928

# Block 3
# Target: Replicase polyprotein 1ab, nsp13 helicase (rep, Severe acute respiratory syndrome coronavirus 2, UniProt P0DTD1)
# Mode: inhibitor
# Tested at: 20 µM
SMILES,inhibition
Cc1csc(-c2nnc(Nc3ccc(Oc4ncccc4-c4ccnc(N)n4)cc3)c3ccccc23)c1,7.45%
O=C(CNC(=O)c1ccc(Cl)cc1)NO,4.3%
CCCCn1c(-c2ccccc2)nc(-c2ccccc2)c1CN(Cc1ccc2c(c1)OCO2)Cc1ccc2c(c1)OCO2,2.98%
C[C@H]1CC[C@H](n2c3cnccc3c3cnc(Nc4ccc5c(n4)CCN(C(=O)CO)C5)nc32)CC1,1.27%
CCSC(=N)N,2.92%
N#Cc1ccncn1,0.14%
CCOc1c2c(c(OCC)c3ccccc13)C(=O)N(c1ccc(CC(=O)NS(=O)(=O)c3ccccc3)cc1)C2,3.37%
O=C(O)CCCc1ccc(N(CCCl)CCCl)cc1,-3.32%
C/C1=C/C[C@@H](/C(C)=C/c2csc(C)n2)OC(=O)C[C@H](O)C(C)(C)C(=O)[C@H](C)[C@@H](O)[C@@H](C)CCC1,5.24%
CCOC(=O)[N-]c1c[n+](N2CCOCC2)no1,-4.25%
CC(C)(Sc1ccncc1-c1ccc(C#N)c2ccccc12)C(=O)O,2.5%
COC(=O)c1c(C)[nH]c(C)c1C(=O)c1ccccc1Cc1ccccc1,9.37%
NC1(c2ccc(-c3nc4ccn5c(=O)[nH]nc5c4cc3-c3ccccc3)cc2)CCC1,4.72%
Cc1ccc(NC(=O)Nc2cc(C(F)(F)F)ccc2F)cc1Nc1ccc2c(c1)NC(=O)/C2=C\c1ccc[nH]1,-0.91%
CC(=O)Oc1cc2c(s1)CCN(C(C(=O)C1CC1)c1ccccc1F)C2 (stereo not drawn),7.03%
C[C@@H]1CCO[C@H]2Cn3cc(C(=O)NCc4ccc(F)cc4F)c(=O)c(O)c3C(=O)N12,-1.54%
CN1CCN(C2=Nc3ccccc3Sc3ccc(Cl)cc32)CC1,1.43%
CNC(=O)c1ccccc1Sc1ccc2c(/C=C/c3ccccn3)n[nH]c2c1,-23.2%
O=C(Nc1cc(-c2ccccc2)nn1-c1ccccc1F)c1ccc([N+](=O)[O-])cc1,6.17%
Oc1cc(CNC(=S)/C=C/c2cc(O)c(O)c(Br)c2)cc(O)c1O,71.4%
CC1(C)[C@@H]2C[C@H]1[C@@](C)(O)[C@@H](O)C2,8.47%
Cc1c(C)c2c(c(C)c1O)CCC(C)(C)O2,6.91%
CC(=O)O[C@@H]1C[C@H]2C(C)(C)C(=O)C=C[C@]2(C)[C@H]2CC[C@@]3(C)[C@H](c4ccoc4)OC(=O)[C@H]4O[C@]43[C@@]21C,0.73%
O=C(N[C@H]1CN2CCC1CC2)c1ccc(Cl)cc1,0.69%
Cc1c2oc3c(C)ccc(C(=O)N[C@@H]4C(=O)N[C@H](C(C)C)C(=O)N5CCC[C@H]5C(=O)N(C)CC(=O)N(C)[C@@H](C(C)C)C(=O)O[C@@H]4C)c3nc-2c(C(=O)N[C@@H]2C(=O)N[C@H](C(C)C)C(=O)N3CCC[C@H]3C(=O)N(C)CC(=O)N(C)[C@@H](C(C)C)C(=O)O[C@@H]2C)c(N)c1=O,102%

# Block 4
# Target: Centromere-binding protein 1, full length, N-terminal tag (CBF1, Saccharomyces cerevisiae, UniProt P17106, residues 1-351)
# Sequence of UniProt P17106 (whole entry, looked up): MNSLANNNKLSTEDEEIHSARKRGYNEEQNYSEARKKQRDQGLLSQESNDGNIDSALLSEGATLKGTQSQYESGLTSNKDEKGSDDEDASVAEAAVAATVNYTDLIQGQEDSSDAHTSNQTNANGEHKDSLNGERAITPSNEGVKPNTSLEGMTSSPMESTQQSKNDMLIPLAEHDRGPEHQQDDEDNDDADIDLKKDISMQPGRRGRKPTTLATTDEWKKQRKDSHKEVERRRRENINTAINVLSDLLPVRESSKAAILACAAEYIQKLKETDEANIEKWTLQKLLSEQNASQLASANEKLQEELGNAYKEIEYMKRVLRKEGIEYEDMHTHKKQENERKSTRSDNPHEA
# Method: protein-binding microarray
# Molecule type: double-stranded DNA, one strand shown
# Medium: in vitro
# Tested at: 0.8 µM
# Setting: whole 60-bp probe, no competitor
# Reading: higher = stronger binding
Strand,fluorescence intensity [a.u.]
GAAATAGGTAGACACCACGTATTGGCGACCCGATAGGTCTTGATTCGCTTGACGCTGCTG,514
GAATATTAGTTGTAGCATGTGCTCATCTCCATGTAGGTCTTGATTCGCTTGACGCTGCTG,854
GAATTGCGTTGGAGCCATCTCCTGAATTCCATTTAGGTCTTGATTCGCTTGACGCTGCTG,507
GAAAATGTTTACACGAACGTGCCTGATCGACATTAGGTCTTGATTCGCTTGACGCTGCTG,609
GAAAACAGAGGTATAAACCACATGCCGATTGTTTAGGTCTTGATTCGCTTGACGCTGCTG,581
CTATTCGTTAAACGTGATTTAGCTATCGGAACCTTCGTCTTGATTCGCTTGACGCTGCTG,1510
TGTACGAAGCTATCAGCCGTGCCTATAGTAGTTAGGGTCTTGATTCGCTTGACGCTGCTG,491
GAAACAGCCTTTTCAGAGGTGATGAGCAATCTCTAGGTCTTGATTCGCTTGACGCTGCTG,533

# Block 5
# Cell line: HEK-293T-ACE2
# Tested at: concentration not given
# Reference: vehicle
Compound,cell number
C/C=C1\NC(=O)[C@H]2CSSCC/C=C/[C@H](CC(=O)N[C@H](C(C)C)C(=O)N2)OC(=O)[C@H](C(C)C)NC1=O,77.6%
C[C@]12CC[C@@H]3c4ccc(O)cc4CC[C@H]3[C@@H]1CC[C@@H]2OC(=O)CCC1CCCC1,107%
CNC(=O)c1ccc(N2C(=S)N(c3ccc(C#N)c(C(F)(F)F)c3)C(=O)C2(C)C)cc1F,102%

# Block 6
# Target: Replicase polyprotein 1ab, main protease (rep, Severe acute respiratory syndrome coronavirus 2, UniProt P0DTD1)
# Read-out: enzyme activity
# Mode: inhibitor
# Setting: with DTT
SMILES,IC50 [µM]
Cc1c(OCC(F)(F)F)ccnc1C[S+]([O-])c1nc2ccccc2[nH]1 (stereo not drawn),> 20
O=C(O)[C@@H](S)[C@@H](S)C(=O)O,0.08
CC1=C(/C=C/C(C)=C/C=C/C(C)=C/C(=O)O)C(C)(C)CCC1,17.1
O=C(CCl)c1ccccc1,0.24
Cc1ccc(-n2sc(=O)n(Cc3ccc(F)cc3)c2=O)cc1,0.15

# Some of these lines once more (block 2):
Strand,RBNS enrichment (R)
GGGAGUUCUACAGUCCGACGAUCAGCAUCAGGUGUAGGAGGCCUUGAGUCUGUGAGACCCCCGGGGCCAGCACCAAGACUCACGGAAAGACUAGACUGUGUGGGUAUCUGAAACAAAGCCCACAGGAUACGCCUGGAAUUCUCGGGUGCCAA,0.644
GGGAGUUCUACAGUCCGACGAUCUCUGCUUUUCUUGGCGUUGGGUAGAAGCAGGACAUCUGUGUGUAUGUGCGUAUUUAAAUUAGAUUAUUUAUAAUAACCAGAGCCAGCCCUCGCGCUGGCCAGGAUCCUCCUGGAAUUCUCGGGUGCCAA,0.526
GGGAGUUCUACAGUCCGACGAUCUUCCCUUUGGCUCCUGGAAGGCAGGAGGGUCCCCUGCCCUGCCCCAGUCCUGCCCCAGGGAGGCAGGGGGUGGGGGGCCUUCCUUUCCUCCUGGGCACCCCGUGUGCUGUUGGAAUUCUCGGGUGCCAA,0.502
